Measured values pooled from the literature.
CNR1: Cannabinoid receptor 1 (CNR1, Homo sapiens, UniProt P21554)
Chain of UniProt P21554 (whole entry, looked up): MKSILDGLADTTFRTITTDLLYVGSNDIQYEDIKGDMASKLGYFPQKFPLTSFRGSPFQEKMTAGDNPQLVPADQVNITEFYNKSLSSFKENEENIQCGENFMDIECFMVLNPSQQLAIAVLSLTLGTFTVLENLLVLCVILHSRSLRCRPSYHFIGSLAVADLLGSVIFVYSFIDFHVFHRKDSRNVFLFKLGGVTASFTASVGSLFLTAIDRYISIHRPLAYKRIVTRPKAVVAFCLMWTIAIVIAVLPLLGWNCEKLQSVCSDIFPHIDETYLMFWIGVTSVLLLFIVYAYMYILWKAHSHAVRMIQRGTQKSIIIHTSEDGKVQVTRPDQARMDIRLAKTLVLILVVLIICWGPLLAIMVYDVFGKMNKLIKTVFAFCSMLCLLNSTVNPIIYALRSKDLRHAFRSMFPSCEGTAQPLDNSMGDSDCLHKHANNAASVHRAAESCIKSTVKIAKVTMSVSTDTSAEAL
TMPRSS2: Transmembrane protease serine 2 (TMPRSS2, Homo sapiens, UniProt O15393)
Chain of UniProt O15393 (whole entry, looked up): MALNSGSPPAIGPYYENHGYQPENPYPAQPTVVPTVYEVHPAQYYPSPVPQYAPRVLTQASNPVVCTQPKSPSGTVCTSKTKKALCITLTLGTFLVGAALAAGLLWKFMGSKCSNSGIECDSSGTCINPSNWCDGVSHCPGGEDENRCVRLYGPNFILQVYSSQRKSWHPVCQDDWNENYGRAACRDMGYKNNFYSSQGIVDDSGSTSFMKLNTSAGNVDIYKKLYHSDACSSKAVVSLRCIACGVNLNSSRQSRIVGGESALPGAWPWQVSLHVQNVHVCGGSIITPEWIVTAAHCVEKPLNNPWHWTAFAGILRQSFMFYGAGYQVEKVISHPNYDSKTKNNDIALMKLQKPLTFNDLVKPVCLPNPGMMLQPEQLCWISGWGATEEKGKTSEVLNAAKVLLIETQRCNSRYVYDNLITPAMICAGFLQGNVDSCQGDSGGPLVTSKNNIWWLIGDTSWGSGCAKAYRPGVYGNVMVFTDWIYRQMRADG
ULK1: Serine/threonine-protein kinase ULK1 (ULK1, Homo sapiens, UniProt O75385)
Chain of UniProt O75385 (whole entry, looked up): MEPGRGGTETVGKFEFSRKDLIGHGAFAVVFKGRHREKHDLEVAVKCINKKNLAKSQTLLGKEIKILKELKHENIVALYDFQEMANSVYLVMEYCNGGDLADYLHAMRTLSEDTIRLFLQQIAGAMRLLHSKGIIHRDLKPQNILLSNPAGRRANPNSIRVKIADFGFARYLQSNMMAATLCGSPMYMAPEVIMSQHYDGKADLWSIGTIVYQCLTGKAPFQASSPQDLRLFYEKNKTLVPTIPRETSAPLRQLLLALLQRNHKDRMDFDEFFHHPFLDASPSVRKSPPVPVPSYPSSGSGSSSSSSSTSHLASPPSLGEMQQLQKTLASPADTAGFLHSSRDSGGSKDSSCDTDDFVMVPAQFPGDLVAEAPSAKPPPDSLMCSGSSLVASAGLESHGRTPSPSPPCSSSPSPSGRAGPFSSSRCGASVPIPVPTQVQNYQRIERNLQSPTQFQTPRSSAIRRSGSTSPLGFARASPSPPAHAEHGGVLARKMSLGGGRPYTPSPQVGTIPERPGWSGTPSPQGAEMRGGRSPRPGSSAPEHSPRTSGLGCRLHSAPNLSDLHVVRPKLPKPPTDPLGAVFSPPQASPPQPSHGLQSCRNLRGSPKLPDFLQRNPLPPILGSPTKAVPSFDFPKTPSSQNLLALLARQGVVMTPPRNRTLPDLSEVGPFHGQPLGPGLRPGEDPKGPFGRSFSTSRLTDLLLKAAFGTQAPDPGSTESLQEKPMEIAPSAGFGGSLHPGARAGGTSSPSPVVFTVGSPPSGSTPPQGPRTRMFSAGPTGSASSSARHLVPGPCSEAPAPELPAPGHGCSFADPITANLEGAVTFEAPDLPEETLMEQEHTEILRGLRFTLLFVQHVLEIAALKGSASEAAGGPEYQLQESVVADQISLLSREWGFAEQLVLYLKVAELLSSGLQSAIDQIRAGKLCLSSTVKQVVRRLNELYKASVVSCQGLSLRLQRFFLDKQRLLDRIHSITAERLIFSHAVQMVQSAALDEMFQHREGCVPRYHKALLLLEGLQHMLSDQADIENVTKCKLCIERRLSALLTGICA
PFF0160c: Dihydroorotate dehydrogenase (quinone), mitochondrial (PFF0160c, Plasmodium falciparum, UniProt Q08210)
Chain of UniProt Q08210 (whole entry, looked up): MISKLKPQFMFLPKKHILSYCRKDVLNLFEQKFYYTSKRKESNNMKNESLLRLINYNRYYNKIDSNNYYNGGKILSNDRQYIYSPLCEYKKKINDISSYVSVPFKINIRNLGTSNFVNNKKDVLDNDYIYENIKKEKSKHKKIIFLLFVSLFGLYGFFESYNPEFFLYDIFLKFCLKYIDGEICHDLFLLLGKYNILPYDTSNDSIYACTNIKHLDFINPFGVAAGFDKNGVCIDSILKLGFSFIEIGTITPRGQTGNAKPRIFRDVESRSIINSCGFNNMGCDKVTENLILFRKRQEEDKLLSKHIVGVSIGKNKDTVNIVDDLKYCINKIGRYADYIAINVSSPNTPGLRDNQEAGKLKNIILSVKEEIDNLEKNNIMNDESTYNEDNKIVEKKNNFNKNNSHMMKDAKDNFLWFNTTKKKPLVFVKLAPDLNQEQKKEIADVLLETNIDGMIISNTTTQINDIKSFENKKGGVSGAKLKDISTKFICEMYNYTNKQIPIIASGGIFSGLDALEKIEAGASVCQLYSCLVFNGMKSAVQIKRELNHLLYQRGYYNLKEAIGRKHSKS
Chain of UniProt Q13554 (whole entry, looked up): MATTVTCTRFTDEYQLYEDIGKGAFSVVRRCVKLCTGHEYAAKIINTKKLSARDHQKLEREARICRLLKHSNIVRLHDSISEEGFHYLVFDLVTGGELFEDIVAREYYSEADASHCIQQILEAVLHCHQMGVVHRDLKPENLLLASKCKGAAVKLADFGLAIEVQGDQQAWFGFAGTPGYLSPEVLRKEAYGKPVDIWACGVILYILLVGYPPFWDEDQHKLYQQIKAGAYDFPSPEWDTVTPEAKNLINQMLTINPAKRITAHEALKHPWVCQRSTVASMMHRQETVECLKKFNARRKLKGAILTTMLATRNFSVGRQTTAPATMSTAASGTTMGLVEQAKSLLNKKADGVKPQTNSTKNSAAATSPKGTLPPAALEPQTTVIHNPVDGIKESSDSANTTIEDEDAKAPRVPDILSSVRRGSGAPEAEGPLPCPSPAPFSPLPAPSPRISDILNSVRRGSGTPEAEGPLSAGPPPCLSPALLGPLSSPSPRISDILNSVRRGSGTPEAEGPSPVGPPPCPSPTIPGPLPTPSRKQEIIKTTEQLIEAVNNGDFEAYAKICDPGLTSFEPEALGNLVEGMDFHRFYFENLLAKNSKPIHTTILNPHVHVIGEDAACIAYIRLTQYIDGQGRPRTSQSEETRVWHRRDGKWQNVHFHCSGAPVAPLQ
Chain of UniProt Q9NRH2 (whole entry, looked up): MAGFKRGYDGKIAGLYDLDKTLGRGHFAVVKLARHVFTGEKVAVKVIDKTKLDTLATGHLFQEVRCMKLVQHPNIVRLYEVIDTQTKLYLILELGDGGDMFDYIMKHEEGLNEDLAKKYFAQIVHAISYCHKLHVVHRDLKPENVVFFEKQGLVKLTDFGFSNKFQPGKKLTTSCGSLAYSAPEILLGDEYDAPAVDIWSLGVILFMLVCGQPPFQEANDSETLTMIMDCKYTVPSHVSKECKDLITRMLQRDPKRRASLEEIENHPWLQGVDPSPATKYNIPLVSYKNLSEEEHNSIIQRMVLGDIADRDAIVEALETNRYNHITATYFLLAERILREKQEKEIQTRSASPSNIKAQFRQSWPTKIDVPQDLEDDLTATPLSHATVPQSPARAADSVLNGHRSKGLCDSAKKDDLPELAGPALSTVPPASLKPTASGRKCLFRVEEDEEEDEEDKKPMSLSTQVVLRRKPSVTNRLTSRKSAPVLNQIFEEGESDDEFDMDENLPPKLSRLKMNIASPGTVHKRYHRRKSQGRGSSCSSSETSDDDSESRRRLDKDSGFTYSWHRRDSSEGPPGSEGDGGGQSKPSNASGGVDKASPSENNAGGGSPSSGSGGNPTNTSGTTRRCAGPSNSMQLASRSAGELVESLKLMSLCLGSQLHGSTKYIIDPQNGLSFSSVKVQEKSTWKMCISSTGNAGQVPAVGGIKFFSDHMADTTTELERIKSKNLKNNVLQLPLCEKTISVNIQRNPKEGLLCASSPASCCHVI
Chain of UniProt P41144 (whole entry, looked up): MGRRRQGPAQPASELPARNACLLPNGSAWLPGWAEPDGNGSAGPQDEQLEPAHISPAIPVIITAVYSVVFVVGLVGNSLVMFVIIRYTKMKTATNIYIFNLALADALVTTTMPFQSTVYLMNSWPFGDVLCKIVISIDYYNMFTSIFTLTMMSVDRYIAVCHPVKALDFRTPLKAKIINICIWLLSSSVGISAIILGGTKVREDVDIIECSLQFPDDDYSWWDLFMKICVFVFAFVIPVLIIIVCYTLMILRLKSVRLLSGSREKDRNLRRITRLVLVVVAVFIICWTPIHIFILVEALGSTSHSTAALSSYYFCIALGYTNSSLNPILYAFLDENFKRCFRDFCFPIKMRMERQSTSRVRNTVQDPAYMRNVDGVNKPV
Chain of UniProt P50406 (whole entry, looked up): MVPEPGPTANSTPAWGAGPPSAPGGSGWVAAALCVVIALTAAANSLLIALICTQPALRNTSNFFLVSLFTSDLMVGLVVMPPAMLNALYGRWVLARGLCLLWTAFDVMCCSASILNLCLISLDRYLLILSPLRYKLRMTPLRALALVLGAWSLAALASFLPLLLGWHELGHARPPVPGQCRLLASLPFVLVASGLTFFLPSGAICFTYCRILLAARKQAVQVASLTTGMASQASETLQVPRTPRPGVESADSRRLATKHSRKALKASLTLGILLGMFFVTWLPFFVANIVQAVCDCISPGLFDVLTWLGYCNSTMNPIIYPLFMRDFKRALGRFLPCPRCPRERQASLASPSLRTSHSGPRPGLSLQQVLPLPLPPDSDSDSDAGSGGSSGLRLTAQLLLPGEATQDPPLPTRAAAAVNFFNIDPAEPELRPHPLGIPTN

The Emax of `CCCCCc1ccccc1C/C=C\C/C=C\C/C=C\CCCC(=O)OC(CO)CO` is reported as 4% (CNR1; β-arrestin recruitment, agonist).
For `CCCCCn1c(O)c(N=NC(=O)c2ccccc2)c2ccccc21`, the Emax was 82.5% (CNR1; β-arrestin recruitment, agonist; HEK293).
The inhibition of `CC(C)CC(=O)OC[C@H]1O[C@@](C#N)(c2ccc3c(N)ncnn23)[C@H](O)[C@@H]1O` is reported as 10% (LCK (Homo sapiens, UniProt P06239); enzyme activity, inhibitor; 20 µM).
With `c1cncc([C@@H]2CCCN2)c1` the inhibition was 10.7% (ADRA2C (Homo sapiens, UniProt P18825); ligand displacement; 50 µM).
`CC(=O)N[C@@H](CCC(N)=O)C(=O)N[C@@H](Cc1ccccc1)C(=O)N[C@@H](CCCNC(=N)N)C(=O)c1nccn1C`: “activity vs control” 100% (TMPRSS2; enzyme activity, inhibitor; 1 nM).
`[2H]c1c([2H])c([C@]2([2H])CCCN2C(=O)C(C)(C)Oc2ccc3cn[nH]c3c2)c([2H])c([2H])c1C([2H])([2H])[2H]` gave a remaining binding of 66% (CLK2 (Homo sapiens, UniProt P49760); binding, competition with immobilised ligand; 1 µM).
Under “activity vs control”, `CC(C)[C@@H](NC(=O)[C@H](CCc1ccccc1)NC(=O)CCc1ccccc1)C(=O)N[C@@H](CCCNC(=N)N)C(=O)c1nc2ccccc2s1` is recorded as 80% (TMPRSS2; enzyme activity, inhibitor; 1 nM).
`COc1ncccc1-c1cnn2ccc(N3CCN(C(=O)OC(C)C)CC3)nc12` has a remaining binding of 94% (ULK1; binding, competition with immobilised ligand; 1 µM).
`N=C(N)NCCCCC(=O)N[C@@H](CCC(N)=O)C(=O)N[C@@H](Cc1ccccc1)C(=O)N[C@@H](CCNC(=N)N)CC(=O)c1nc2ccccc2s1`: “activity vs control” 96% (TMPRSS2; enzyme activity, inhibitor; 1 nM).
`C#Cc1n[nH]c2c(-c3cn([C@@H](C)c4ccccn4)c(=O)[nH]c3=O)cc(F)cc12` has an inhibition of 6.4% (CAMK2B (Homo sapiens, UniProt Q13554); enzyme activity, inhibitor; 0.1 µM).
`CCC(C)[C@H](N)C(=O)N[C@@H](CCC(N)=O)C(=O)N[C@@H](C)C(=O)N[C@H](CCCNC(=N)N)C(=O)c1nc2ccccc2s1` (some centres unmarked): “activity vs control” 69% (TMPRSS2; enzyme activity, inhibitor; 1 nM).
The remaining binding of `CCN(CC)CCCC[C@H](NC(=O)[C@H](CC(C)C)NC(=O)[C@H](C)NC(=O)[C@H](Cc1ccccc1)NC(=O)c1ccc(C(C)(C)C)cc1)C(=O)N[C@@H](CO)C(=O)OC` is reported as 105% (HTR6 (Homo sapiens, UniProt P50406); ligand displacement, radioligand; 10 µM).
For `Nc1ncc(-c2nc(N3CCOCC3)nc(N3CCOCC3)n2)c(C(F)F)n1`, the remaining binding was 57% (ULK1; binding, competition with immobilised ligand; 10 µM).
`NCCc1ccccc1` gave a remaining activity of 93.7% (Procathepsin L (CTSL, Homo sapiens, UniProt P07711); enzyme activity, inhibitor; 100 µM).
The remaining binding of `CCCC[C@H]1CNCCN1C[C@@H]1CCCN1C[C@@H](Cc1ccc2ccccc2c1)N1CCN(CCC23CC4CC(CC(C4)C2)C3)[C@H]([C@@H](C)O)C1` is reported as 97.3% (OPRK1 (Cavia porcellus, UniProt P41144); ligand displacement, radioligand; 0.5 µM, pH 7.5).
`Cc1nn(C)cc1-c1nc2c(N3CCN(Cc4ccc(Cl)cc4)CC3)c(Cl)cnc2[nH]1` gave a remaining binding of 100% (SNRK (Homo sapiens, UniProt Q9NRH2); binding, competition with immobilised ligand; 1 µM).
For `N=C(N)NCCCCC(=O)N[C@@H](CCC(N)=O)C(=O)N[C@@H](Cc1ccc(C(=O)c2ccccc2)cc1)C(=O)N[C@H](CCCNC(=N)N)C(=O)c1nc2ccccc2s1`, “activity vs control” read 91% (TMPRSS2; enzyme activity, inhibitor; 1 nM).
`Oc1cc(NC[C@H]2CCC[C@@H]2NCc2cc(Br)cc(Br)c2)nc2ccccc12` gave an IC50 of 2800 nM (PFF0160c; enzyme activity, inhibitor, absorbance).
For `CC(C)[C@H](NC(=O)[C@H](Cc1cccc(Cl)c1)NC(=O)[C@@H](N)Cc1ccc(O)cc1)C(=O)N[C@H](CCCNC(=N)N)C(=O)c1nc2ccccc2s1`, “activity vs control” read 97% (TMPRSS2; enzyme activity, inhibitor; 1 nM).
With `O=c1c(Br)c(C(F)(F)F)[nH]c2ccc(Oc3ccccc3)cc12` the IC50 was 1690 nM (PFF0160c; enzyme activity, inhibitor, absorbance).

A few entries again:
`Cc1nn(C)cc1-c1nc2c(N3CCN(Cc4ccc(Cl)cc4)CC3)c(Cl)cnc2[nH]1` gave a remaining binding of 100% (SNRK (Homo sapiens, UniProt Q9NRH2); binding, competition with immobilised ligand; 1 µM).
